# Measured values from different studies.
# Parts stem from different laboratories: compare values within a part only. Positions count from the first letter of the parent shown.

# Block 1
# Target: CCND1, cyclin fold, Cln2 fusion (human)
# Method: yeast growth competition, sequencing
# Matrix: yeast
# Setting: strong parent motif
# Reference: not given
# Direction: higher = stronger binding
# Starting sequence: viral docking peptide; KGVKRKLFAEDSS
Variant,normalised enrichment score
D11V,0.536
D11G,0.947
R5L,0.0806
E10V,0.142
K4W,0.226
G2P,2.63
E10M,0.455
G2L,0.838
S12Y,1.37
K4Y,0.271
A9R,0.786
R5F,0.234
G2S,2.08
R5P,0.298
K4R,2.22
F8R,0.0101
V3I,1.17
L7I,0.131
S12L,1.42
E10H,0.0684
R5V,0.799
A9L,0.589
K6Y,-0.0926
A9D,2.12
F8I,0.0875

# Block 2
# Target: inorganic phosphate, free oxyanion
# Method: microfluidic competitive inhibition
# Matrix: in vitro, cell-free expressed
# Concentration: not given
# Setting: derived from inhibition constants, unchanged parent 615000 nM
# Direction: lower = stronger binding
# Starting sequence: PafA, mature enzyme, eGFP fusion (Elizabethkingia meningoseptica, UniProt Q9KJX5); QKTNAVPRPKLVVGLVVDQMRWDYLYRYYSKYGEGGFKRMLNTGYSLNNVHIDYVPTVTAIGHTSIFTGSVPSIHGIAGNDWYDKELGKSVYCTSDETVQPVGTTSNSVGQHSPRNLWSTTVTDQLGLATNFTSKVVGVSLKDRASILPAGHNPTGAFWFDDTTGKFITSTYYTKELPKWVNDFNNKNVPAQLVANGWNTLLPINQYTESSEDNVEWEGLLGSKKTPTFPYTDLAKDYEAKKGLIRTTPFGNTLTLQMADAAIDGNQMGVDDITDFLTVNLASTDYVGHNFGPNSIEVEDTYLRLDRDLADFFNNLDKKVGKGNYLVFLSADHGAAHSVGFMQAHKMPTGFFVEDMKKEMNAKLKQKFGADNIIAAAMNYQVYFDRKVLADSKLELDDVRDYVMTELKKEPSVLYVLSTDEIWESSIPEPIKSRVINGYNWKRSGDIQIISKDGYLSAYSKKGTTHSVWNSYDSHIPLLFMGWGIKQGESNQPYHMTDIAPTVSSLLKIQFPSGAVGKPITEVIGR
Variant,phosphate dissociation constant [µM]
M496V,516
S70V,474
T94G,< 589
V181G,516
G340A,516
L277V,620
F351V,616
W22V,496
K10G,532
K486V,695
G445V,63.7
Y472G,251
V416A,680
K2V,709
F229V,519
K38G,460
T200G,487
K442V,617
M404V,605
V109A,695
A261V,610
P501G,463
D143V,> 5140
V17G,484
S223V,573

# Block 3
# Target: CREB3L2, bZIP domain (human)
# Method: DHFR protein complementation
# Matrix: yeast
# Setting: single substitutions, most at no-binding floor
# Reference: wild-type JUN-FOS pair
# Direction: higher = stronger binding
# Starting sequence: JUN, bZIP domain (human); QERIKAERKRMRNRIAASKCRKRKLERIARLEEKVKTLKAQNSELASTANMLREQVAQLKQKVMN; partner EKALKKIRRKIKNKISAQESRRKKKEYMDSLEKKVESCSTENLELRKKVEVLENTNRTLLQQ
Variant,binding fitness
Q55S,-1.49 natural log
R53W,-1.53 natural log
K39M,-1.39 natural log
R30N,-1.11 natural log
T37Y,-1.61 natural log
K34S,-1.45 natural log
S43F,-1.49 natural log
S47H,-1.4 natural log

# Block 4
# Target: UDP-N-acetylglucosamine--peptide N-acetylglucosaminyltransferase 110 kDa subunit (OGT, Homo sapiens, UniProt O15294)
# Effect on: binding
# Method: phage display NGS
# Molecule type: peptide
# Reference: input library
# Construct (O15294 1-1046): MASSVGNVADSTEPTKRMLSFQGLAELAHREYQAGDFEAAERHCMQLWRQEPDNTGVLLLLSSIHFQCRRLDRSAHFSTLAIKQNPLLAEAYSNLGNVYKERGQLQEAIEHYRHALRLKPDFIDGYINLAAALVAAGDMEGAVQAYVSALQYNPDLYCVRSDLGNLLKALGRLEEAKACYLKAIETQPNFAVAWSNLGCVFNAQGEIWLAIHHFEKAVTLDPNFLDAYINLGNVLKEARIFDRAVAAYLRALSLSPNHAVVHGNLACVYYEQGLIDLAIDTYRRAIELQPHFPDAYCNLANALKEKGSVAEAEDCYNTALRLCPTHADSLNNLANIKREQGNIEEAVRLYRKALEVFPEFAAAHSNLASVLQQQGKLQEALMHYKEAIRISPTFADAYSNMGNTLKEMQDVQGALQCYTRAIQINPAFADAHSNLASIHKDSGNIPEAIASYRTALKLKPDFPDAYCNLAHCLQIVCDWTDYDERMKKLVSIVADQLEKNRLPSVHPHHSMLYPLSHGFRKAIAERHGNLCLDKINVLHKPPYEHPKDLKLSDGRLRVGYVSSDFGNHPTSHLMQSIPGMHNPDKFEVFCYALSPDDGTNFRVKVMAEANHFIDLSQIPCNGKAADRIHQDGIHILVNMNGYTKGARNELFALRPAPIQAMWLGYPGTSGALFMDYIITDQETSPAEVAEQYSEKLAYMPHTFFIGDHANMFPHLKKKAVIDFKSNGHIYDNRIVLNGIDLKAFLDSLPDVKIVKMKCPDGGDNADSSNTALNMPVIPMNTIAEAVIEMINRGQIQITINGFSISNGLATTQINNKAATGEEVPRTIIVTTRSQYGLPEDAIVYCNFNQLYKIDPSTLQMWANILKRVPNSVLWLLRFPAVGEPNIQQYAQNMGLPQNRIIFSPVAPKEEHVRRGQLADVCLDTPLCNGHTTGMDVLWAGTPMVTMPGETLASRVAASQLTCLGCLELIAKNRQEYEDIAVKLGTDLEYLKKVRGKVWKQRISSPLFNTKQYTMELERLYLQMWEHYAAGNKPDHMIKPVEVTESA
Sequence,minimum log2 enrichment ratio
YYHTPRHDQMHVYVR,2.5
TDYMFTQHHWHKVQH,3.22
WDYIPMYQIQSVRG,3.23
YPWHRPHQHTYERDE,2.42
MPYFPPAYKIQTAYA,3.93
HINHHHQSITIPWWN,5.87
HLKHHYLAFTTHHPG,3
HDVAMAKLHHQQFDY,1.25
HRQHHVTDSMNPYRT,2.37
TQGMHPQRPHHVGY,2.14
YRLYTPQYQIQWSTN,5.05
DYIYGHSHPHIMNHN,3.26
HKPMLHHRWRDIDNL,3.2
QWQYNLMPYYSINYK,0.978
QHHWMHHEWQAHQPH,1.61
AHQNRYMPFYKIEFF,3.19
TWEWPYHRHMQHPFA,3.9
SLSHHHIQEHGAYQH,2.54
HNHHSHASQMPKFDV,1.6
HGIYWRGLADHGLD,2.33
THTYHPHHIPSDHVH,3.33
HDQRHHQRETKGEVH,2.13
QWKPRHDHIHYYEYH,3
HQAHRTHFPSRTDYV,2.01
RYYEPVYQIVATNSN,2.66

# Repeated from above (block 4):
Sequence,minimum log2 enrichment ratio
HNHHSHASQMPKFDV,1.6
HRQHHVTDSMNPYRT,2.37
RYYEPVYQIVATNSN,2.66
HLKHHYLAFTTHHPG,3
